Published values from different studies.
Compare with care: the assays were run in different laboratories.

SMILES = C[C@@H](Nc1cc(F)cc(F)c1)c1cc(C(=O)N(C)C)cc2c(=O)cc(N3CCOCC3)oc12; test = refers to: Hydronephrosis; system = advanced solid tumour patients; setting = oral, dose not given, dose expansion; quantity = patients discontinuing for AE; value = 0%
SMILES = CNC(=O)c1ccc(-c2cnc3ncc(Cc4ccc5ncccc5c4)n3n2)cc1F; test = refers to: Anemia, all grades; system = cancer patients; setting = oral, 600 mg twice daily, expansion cohort, any causality; quantity = patients with adverse event; value = 8%
SMILES = Cc1cc(NC2CCN(C(=O)OC3CCN(C(=O)/C=C/CN(C)C)C3)CC2)n2ncc(C(C)C)c2n1 (centres unmarked); test = CTCAE v4.0, refers to: Asthenia; system = patients with advanced solid tumours; setting = oral, dose not given, TIW, grade 3 or higher; quantity = patients with TEAE; value = 0%
SMILES = O=C(Nc1nc2cccc(-c3ccc(CN4CCS(=O)(=O)CC4)cc3)n2n1)C1CC1; system = rheumatoid arthritis patients; setting = oral, 100 mg twice daily, 4 weeks, regardless of relatedness; quantity = patients with nervous system disorders; value = 8.3%
SMILES = Cc1cc(-c2nnc(N)nc2-c2ccc(F)cc2)cc(Cl)n1; test = refers to: Myositis; system = IO-naive mCRPC patients, male; setting = oral, dose not given, treatment-related, grade ≥3; quantity = patients with immune-mediated AE; value = 0%
SMILES = COc1cc(Nc2ncc3c(n2)-c2ccc(Cl)cc2C(c2c(F)cccc2OC)=NC3)ccc1C(=O)O; test = refers to: increased ALT, all grades; system = cancer patients, phase 1/2; setting = oral, dose not given, added: pembrolizumab; quantity = patients with adverse event; value = 25%
SMILES = COc1ccc([C@@H](O)c2cc(-c3ncnc4cc(N5CCOCC5)ccc34)c(F)cc2Cl)nn1; test = refers to: Lymphopenia; system = locally advanced rectal cancer patients; setting = dose not given, all dose groups, added: capecitabine plus radiotherapy; quantity = patients with drug-related AE; value = 21%
SMILES = C[C@@H](c1ccc2nccn2c1)n1nnc2ncc(-c3cnn(C)c3)nc21; test = refers to: treatment-related grade ≥3 Dyspnea; system = EGFR-mutant MET-altered NSCLC; setting = oral, dose not given, all; quantity = patients with adverse events; value = 1%
SMILES = COc1cc2nccc(Oc3ccc(NC(=O)c4cc5c(n(-c6ccccc6)c4=O)CCCC5=O)nc3)c2cc1OC; system = patients with relapsed/refractory AML; setting = oral, 3 mg once daily; quantity = patients with serious TEAEs; value = 90%
SMILES = C=CC(=O)NC1CCN(c2ncc3ncnc(Nc4ccc(Oc5ccc6c(c5)ncn6C)c(C)c4)c3n2)CC1; system = male patients; setting = oral, dose not given, on-treatment adverse events; quantity = patients with Diarrhea; value = 0%
SMILES = CCOc1c([C@H](C)n2nc(C)c3c(N)ncnc32)cc(Cl)c(F)c1[C@@H]1CNC(=O)C1; test = refers to: PR > 220 ms; system = previously treated B-cell malignancy; setting = oral, dose not given, all doses; quantity = patients with high heart rate; value = 7.7%

Excerpt of the above:
SMILES = CCOc1c([C@H](C)n2nc(C)c3c(N)ncnc32)cc(Cl)c(F)c1[C@@H]1CNC(=O)C1; test = refers to: PR > 220 ms; system = previously treated B-cell malignancy; setting = oral, dose not given, all doses; quantity = patients with high heart rate; value = 7.7%
